Measured values gathered from unrelated publications.
Numbered parts are unrelated; each lists some results of a single study.

Block 1
Target: Ras GTPase-activating protein-binding protein 1, full length (G3BP1, Homo sapiens, UniProt Q13283)
UniProt Q13283, sequence (whole entry, looked up): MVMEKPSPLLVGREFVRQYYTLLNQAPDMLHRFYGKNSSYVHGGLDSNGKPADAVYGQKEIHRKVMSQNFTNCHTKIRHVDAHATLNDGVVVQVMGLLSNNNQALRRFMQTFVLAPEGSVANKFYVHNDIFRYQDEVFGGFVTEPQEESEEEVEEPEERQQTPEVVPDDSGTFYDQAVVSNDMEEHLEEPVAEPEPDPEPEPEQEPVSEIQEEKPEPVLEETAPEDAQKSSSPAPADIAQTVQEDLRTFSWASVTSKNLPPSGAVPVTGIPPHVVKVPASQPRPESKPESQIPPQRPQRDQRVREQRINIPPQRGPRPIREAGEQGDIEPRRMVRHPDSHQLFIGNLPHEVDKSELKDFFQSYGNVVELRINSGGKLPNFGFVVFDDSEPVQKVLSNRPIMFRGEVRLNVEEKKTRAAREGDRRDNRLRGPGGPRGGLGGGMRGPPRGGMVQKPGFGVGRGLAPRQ
Technique: RNA Bind-n-Seq
Form: RNA
Sample: in vitro
Concentration: 200 nM
Setting: whole 134-nt RNA, ends assumed
Together with: 150 mM LiCl
Reference: input library
Direction: higher = stronger binding
Library: 7-deaza-guanosine replaces G
All sequences stand within: GGGAGUUCUACAGUCCGACGAUC … UGGAAUUCUCGGGUGUCAAGG
Sequence	log2 enrichment
UGGCCCUGGUGGCAUGCGGGGAGGAAGAGGUGGCCUCAUGGAUCGUGGUGGUCCCGGUGGAGUGUUCAGAGGUGGCCGUGGUGGAGACAG	0.209
UGAAGCGAGAAGCUGCCCUACCCCCAGUGAGCCCCCUGAAGGCGGCUCUCUCUGAGGAGGAGUUAGAGAAGAAAUCCAAGGCUAUCAUUG	0.499
UGGGAGGUGGAUUUUGUUUAUUUUUUUAGCUCAUUUCCAGGGGUGGGAAUUUUUUUUUAAUAUGUGUCAUGAAUAAAGUUGUUUUUGAAU	0.0207
CACAUACAACACGCACCCACACAGACACAGAGGGAAGGGGUUGGGAUGGGGACAGGGUGCACAGCAGGGCGGGGUAGGACCCCAGCCCCU	-0.326
CCUGUGCUACACAUCGUAUGUACCGAAUCGGGAAAAAAGGGGAAAAAAGGGGAAAAAAGGGAAAGUAUUAUGUUACGCCGUUCGGAUCUG	0.494

Block 2
Target: Histone acetyltransferase KAT6A, winged helix 1, GST fusion (KAT6A, Homo sapiens, UniProt Q92794, residues 1-85)
Technique: protein binding microarray
Form: double-stranded DNA, one strand shown
Sample: in vitro
Concentration: not given
Setting: 8-mer, flanks averaged, mean of 2 arrays, mostly near background
Reference: not given
Direction: higher = stronger binding
Target sequence (chain): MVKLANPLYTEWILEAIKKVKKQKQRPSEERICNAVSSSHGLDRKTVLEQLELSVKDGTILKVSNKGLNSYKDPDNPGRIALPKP
Sequence	E-score
AGCGTGTA	0.152
AGTGTGAG	-0.206
AGCCGCGC	0.441
CTCTGAAA	-0.158
ACCAAGCG	0.205
ATTACTTG	-0.205
CGTTAGGA	0.0687

Block 3
Target: RNA binding protein fox-1 homolog 2, RRM domain, GST-SBP tag (RBFOX2, Homo sapiens, UniProt O43251-10, residues 100-194)
Technique: RNA Bind-n-Seq
Form: RNA
Sample: in vitro
Concentration: 365 nM
Setting: natural RNA segment, single round, ends assumed
Reference: no-protein control
Direction: higher = stronger binding
All sequences stand within: GGGAGUUCUACAGUCCGACGAUC … UGGAAUUCUCGGGUGCCAA
Construct (chain): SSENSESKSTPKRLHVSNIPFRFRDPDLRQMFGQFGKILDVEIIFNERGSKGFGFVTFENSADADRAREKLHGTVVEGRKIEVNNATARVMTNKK
Sequence	RBNS enrichment (R)
AGCACAAGCCUAAAGCAAGGUCAAGCAGAUGGCAAAACCGAAUUUGCCUGCAAAGAAAUCUAUUUAACUGAAUCAGCCCAUAAUAUUUGAGGCACGAGGUUACUGUGAUU	0.27
UUGAAUUUGGGCUCCAUCAGUAAUUUUUGACAUUUUCACCAAAAUAUAGUUUGCACUUUUUAAUCUAAAGUCAUCCCUUCUGAGUGAAAUUUGCUCAUAAAGCAUUUGGA	0.363
UUCAUUUAAGCAAAACCAUACAUUAUCUUUUCCAGUCCUUUCUUGUAUUCUUACUGUUUUUUUAAAAUAACUUUUUGCCUUAAUAGCUCAUUGUCACUAAUAACUUCUGU	0.518
GAAACCUUAUGGCUUAAAAUUCCUUAACUCCUUUUUGAUUCAUGUUUGUAGUCAUGUUGUCAACAGAGGCAAAGUUAAGCUUGAUGAUGGUUAAAAUCGGUUUGAUAGCA	2.01
AAUCCUACUUCUCCCCAACAUAGAAGUAGACAUUUCUCAUCCCAUUCUUUGUAAAUGUCCACACCCUACCGCAAAGUCUGGGGAGUCUUCUGGCUGGAAUGCUGUUCACG	0.379
UAAUCAAAAGCUCAUUUCACAAGCAGAAAAAGGCGACAAGUUAAUUAAAGCAAGGAAAAGUGUCACUGAAACAUAAACUGCACCUUAUUGUUUUAUAUUUUUGUACAGAU	0.34

Further values, each from its own experiment
Substance	target	assay	system	setting	scale	measurement	result
PhoQ, residues 284 288 289 292 302 303 ALAMYF	PhoP, residues 12 14 15 18 19 HLGGL (Escherichia coli, UniProt P23836)	Sort-seq, refers to: YFP reporter	E. coli	PhoQ-PhoP variant library, together with: 10 µM Mg2+	reference: high Mg2+ state, higher = stronger signaling	fold induction	12.8

Repeated from above (block 1):
Sequence	log2 enrichment
CACAUACAACACGCACCCACACAGACACAGAGGGAAGGGGUUGGGAUGGGGACAGGGUGCACAGCAGGGCGGGGUAGGACCCCAGCCCCU	-0.326
CCUGUGCUACACAUCGUAUGUACCGAAUCGGGAAAAAAGGGGAAAAAAGGGGAAAAAAGGGAAAGUAUUAUGUUACGCCGUUCGGAUCUG	0.494
